Measured values of several laboratories.
Parts stem from different laboratories: compare values within a part only.

Study 1
Target: Interferon regulatory factor 7, full length, phosphomimetic (IRF7, Homo sapiens, UniProt Q92985, residues 1-503, S101K/S471D/S472D/S475D/S476D/S477D/S483D/S484D/S487D)
Technique: protein-binding microarray
Form: double-stranded DNA, one strand shown
Sample: in vitro
Tested at: 250 nM
Notes: 60-bp whole probe
Together with: salmon DNA 0.4 mg/ml
Relative to: random background probes
Reading: higher = stronger binding
Shared flanks, not repeated: GCCTAGCAC … GTGCTAGGTCTTGATTCGCTTGACGCTGCTG
Residues (chain): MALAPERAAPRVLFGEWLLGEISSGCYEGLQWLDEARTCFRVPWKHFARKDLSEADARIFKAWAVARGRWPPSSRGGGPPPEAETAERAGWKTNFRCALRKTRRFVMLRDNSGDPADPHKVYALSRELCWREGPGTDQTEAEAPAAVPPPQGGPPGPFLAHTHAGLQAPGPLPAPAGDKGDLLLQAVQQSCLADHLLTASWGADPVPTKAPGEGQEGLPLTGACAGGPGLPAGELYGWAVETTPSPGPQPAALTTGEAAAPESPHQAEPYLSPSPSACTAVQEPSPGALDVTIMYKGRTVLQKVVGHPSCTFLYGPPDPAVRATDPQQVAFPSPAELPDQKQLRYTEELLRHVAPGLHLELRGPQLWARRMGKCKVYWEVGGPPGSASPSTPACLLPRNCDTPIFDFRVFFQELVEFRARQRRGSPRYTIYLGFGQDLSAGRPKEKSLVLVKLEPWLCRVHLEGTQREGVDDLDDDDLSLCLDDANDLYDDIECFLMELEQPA
With `GACGATTTCCTTTTCCTGAC` the log fluorescence was 1.67 z-score.
With `TCAAACATCATTTTTCCACT` the log fluorescence was 0.24 z-score.
`GACGGTCTCGGTTTCGGAAC` has a log fluorescence of 10.4 z-score.
`TTAGGACTGCTTTTCCTTTT` has a log fluorescence of 1.53 z-score.
For `TTAGGTATCGGTATCGGGTA`, the log fluorescence was 2.03 z-score.

Study 2
Target: Centromere-binding protein 1, full length, N-terminal tag (CBF1, Saccharomyces cerevisiae, UniProt P17106, residues 1-351)
UniProt P17106, sequence (whole entry, looked up): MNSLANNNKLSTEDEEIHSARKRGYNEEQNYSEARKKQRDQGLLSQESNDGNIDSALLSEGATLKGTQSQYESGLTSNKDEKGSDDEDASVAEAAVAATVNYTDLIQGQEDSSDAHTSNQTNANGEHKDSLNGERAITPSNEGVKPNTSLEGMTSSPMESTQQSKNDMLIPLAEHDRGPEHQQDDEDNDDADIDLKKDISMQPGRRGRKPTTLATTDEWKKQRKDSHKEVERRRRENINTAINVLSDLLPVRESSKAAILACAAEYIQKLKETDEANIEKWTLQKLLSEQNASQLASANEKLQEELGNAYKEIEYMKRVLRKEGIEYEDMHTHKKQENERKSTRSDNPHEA
Technique: protein-binding microarray
Form: double-stranded DNA, one strand shown
Sample: in vitro
Tested at: 0.8 µM
Notes: whole 60-bp probe, no competitor
Reading: higher = stronger binding
Shared flanks, not repeated: … GTCTTGATTCGCTTGACGCTGCTG
For `GAAAAAAAAACCCATCATGATATTCTACGCTTTTAG`, the fluorescence intensity was 534 a.u.
`CTAATTCTCATTTTTAACGTGTCTTTTCTTCAATTC` gave a fluorescence intensity of 548 a.u.
`GAAGGGAATAGGTCACATGAAACGACGACAACTTAG` gave a fluorescence intensity of 2150 a.u.
`TGTACGAAGCTATAAGGCGTGATTATAGTAGTTAGG` gave a fluorescence intensity of 676 a.u.
`CTATGTATACCACTTCACGTGCCACCGAGTAGGTTC` has a fluorescence intensity of 3900 a.u.

Study 3
Target: Histone acetyltransferase KAT6A, both winged helices, GST fusion (KAT6A, Homo sapiens, UniProt Q92794, residues 1-181)
Technique: protein binding microarray
Form: double-stranded DNA, one strand shown
Sample: in vitro
Tested at: not given
Notes: 8-mer, flanks averaged, mean of 2 arrays, mostly near background
Relative to: not given
Reading: higher = stronger binding
Target sequence (chain): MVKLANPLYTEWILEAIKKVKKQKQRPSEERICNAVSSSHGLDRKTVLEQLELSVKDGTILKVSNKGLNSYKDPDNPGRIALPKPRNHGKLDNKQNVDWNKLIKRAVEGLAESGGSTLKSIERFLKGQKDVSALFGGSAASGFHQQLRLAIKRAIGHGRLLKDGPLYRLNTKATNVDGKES
`AAGGGCGA` has an E-score of -0.0118.
`CCTTATCG` has an E-score of -0.07.
`AACCTGGC` has an E-score of 0.00744.
`ACAACAGA` gave an E-score of -0.0645.
For `AGGACTTA`, the E-score was -0.224.
For `GGTCTTAA`, the E-score was 0.0285.

Mixed results
`PhoQ, residues 284 288 289 292 302 303 NSMLDC` gave a fold induction of 17.3 (PhoP, residues 12 14 15 18 19 LHSVQ (Escherichia coli, UniProt P23836); Sort-seq, refers to: YFP reporter; E. coli; PhoQ-PhoP variant library, together with: 10 µM Mg2+; relative to: high Mg2+ state, higher = stronger signaling).

Excerpt of the above (mixed results):
`PhoQ, residues 284 288 289 292 302 303 NSMLDC` gave a fold induction of 17.3 (PhoP, residues 12 14 15 18 19 LHSVQ (Escherichia coli, UniProt P23836); Sort-seq, refers to: YFP reporter; E. coli; PhoQ-PhoP variant library, together with: 10 µM Mg2+; relative to: high Mg2+ state, higher = stronger signaling).
